Measured values gathered from unrelated publications.
Protocols differ between the studies behind these lines.
Target: Casein kinase II subunit alpha (CSNK2A1, Homo sapiens, UniProt P68400)

CCN1CCN(Cc2ccc(C(=O)Nc3ccc(C)c(NCc4cnc5[nH]ccc5c4OC)c3)cc2C(F)(F)F)CC1
remaining binding (binding, competition with immobilised ligand; 1 µM): 31%

NC(=O)[C@@H](O)C[C@H]1CCc2sc3ncnc(O[C@H]4CC[C@H](N5CCOCC5)CC4)c3c21
inhibition (enzyme activity, inhibitor; 10 µM): 18%

CN1CC[C@@H](COc2cnc(C#N)cc2-c2ccn3nc(NC(=O)C4CC4)cc3c2)C1
inhibition (kinase activity; 1 µM, ATP10): 10%

COc1cc(Nc2nccc(-c3cnn4nc(OC)ccc34)n2)cc(C(F)(F)F)c1
remaining binding (binding, competition with immobilised ligand; 1 µM): 85%

Nc1ncc(-c2cc(-c3cnn(CC(F)(F)F)c3)ncc2F)nc1C(=O)NC1CNCC(F)C1 (stereo not shown)
remaining activity (enzyme activity; 1 µM; reference: DMSO control): 101%

COc1c(Cl)cccc1Nc1c(-c2ccncc2C#C[C@@]2(C)CCCN2C(=O)/C=C/CN(C)C)[nH]c2c1C(=O)NCC2
remaining binding (cell-free assay, competition with immobilised ligand; 3 µM): 75%

CCn1cc(C(=O)O)c(=O)c2c(N)c(F)c(NC3CCCCC3)cc21
inhibition (kinase activity; 0.1 µM, together with: ATP at Km): -10.6%

CNC(=O)C1CCN(c2cc(C)c(F)cc2NC(=O)c2ccc(-c3cc(O)ccc3C)c(C)c2)CC1
remaining binding (binding, competition with immobilised ligand; 1 µM): 95%

C=CC(=O)N1CCCC(n2c(=O)c3ncccc3n(Cc3ccc(Oc4ccccc4)cc3)c2=O)C1 (stereo not shown)
remaining binding (cell-free assay, competition with immobilised ligand; 1 µM): 65%

Cc1cccc(-c2ccc3nc(NC(=O)C4CCOCC4)nn3c2)c1
remaining activity (enzyme activity, Dundee kinase panel; 10 µM): 106%

CS(=O)(=O)Nc1cccc(-c2csc3cnc(Nc4ccc(N5CCN(CCCCCOc6cccc7c6C(=O)N(C6CCC(=O)NC6=O)C7=O)CC5)cc4)nc23)c1 (stereo not shown)
inhibition (kinase probe labelling, binder, KiNativ ATP-acylphosphate LC-MS; MOLT-4 live cells; 1 µM): -9.53%

O=C=[N][Ru-4]123([n]4c5ccc(O)cc5c5c6c(c7cc(F)c[n+]1c7c54)C(=O)NC6=O)[S+]1CC[S+]2CC[S+]3CC1 (stereo not shown)
remaining activity (enzyme activity; 100 nM, human enzyme, together with: 10 µM ATP; reference: untreated): 113%

Cc1cnc2nc1Nc1cccc(c1)COC/C=C/COCc1cc(ccc1OCCN1CCOCC1)N2
remaining binding (binding; 0.1 µM): 30%

Cc1ccc(C)c(-c2ccc3nc(NC(=O)C4CCCCC4)nn3c2)c1
remaining activity (enzyme activity, Dundee kinase panel; 10 µM): 104%

Nc1nc(Nc2ccccc2)sc1C(=O)c1ccccc1
remaining activity (enzyme activity, inhibitor; 10 µM): 107%

CN1CCN(Cc2ccc(-c3ccc(CO[C@H]4CCC[C@@H]4NC(=O)c4cc(-c5cnn(C)c5)cnc4N)cc3)cc2)CC1
inhibition (enzyme activity, inhibitor; 0.1 µM): 12%
